{"data": "Measured values from different studies", "note": "A part holds a random share of what one study measured.", "UniProt O95835, sequence (whole entry, looked up)": "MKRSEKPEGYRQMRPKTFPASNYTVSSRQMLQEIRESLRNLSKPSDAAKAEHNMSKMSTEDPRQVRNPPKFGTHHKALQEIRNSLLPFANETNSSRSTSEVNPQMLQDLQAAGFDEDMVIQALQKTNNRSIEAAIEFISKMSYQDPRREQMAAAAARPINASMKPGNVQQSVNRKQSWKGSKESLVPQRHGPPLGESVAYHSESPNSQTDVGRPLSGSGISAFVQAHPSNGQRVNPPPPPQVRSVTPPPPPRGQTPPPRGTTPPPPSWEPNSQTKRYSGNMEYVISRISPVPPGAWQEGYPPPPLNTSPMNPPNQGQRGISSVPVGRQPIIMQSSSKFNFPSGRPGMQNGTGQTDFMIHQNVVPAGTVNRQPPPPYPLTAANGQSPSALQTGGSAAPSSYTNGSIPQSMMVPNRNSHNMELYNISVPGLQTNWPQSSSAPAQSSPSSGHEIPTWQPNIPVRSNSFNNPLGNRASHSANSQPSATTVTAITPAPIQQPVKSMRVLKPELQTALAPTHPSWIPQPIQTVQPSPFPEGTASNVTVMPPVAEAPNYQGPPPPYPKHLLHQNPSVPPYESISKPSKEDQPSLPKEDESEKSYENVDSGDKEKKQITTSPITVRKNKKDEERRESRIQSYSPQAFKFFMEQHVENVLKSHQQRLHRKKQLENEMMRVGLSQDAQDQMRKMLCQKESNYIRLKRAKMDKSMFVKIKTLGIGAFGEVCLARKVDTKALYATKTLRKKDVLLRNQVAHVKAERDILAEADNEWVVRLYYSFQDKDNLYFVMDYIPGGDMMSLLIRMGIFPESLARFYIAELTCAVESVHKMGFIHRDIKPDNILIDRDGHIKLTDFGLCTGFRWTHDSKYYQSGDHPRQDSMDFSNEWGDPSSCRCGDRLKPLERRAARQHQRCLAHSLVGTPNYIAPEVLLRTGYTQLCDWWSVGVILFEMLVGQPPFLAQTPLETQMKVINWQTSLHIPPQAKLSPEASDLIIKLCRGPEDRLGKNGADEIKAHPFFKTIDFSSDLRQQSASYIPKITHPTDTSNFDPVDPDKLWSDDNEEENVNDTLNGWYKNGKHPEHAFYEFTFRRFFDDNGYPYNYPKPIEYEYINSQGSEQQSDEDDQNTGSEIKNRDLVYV", "UniProt O14733, sequence (whole entry, looked up)": "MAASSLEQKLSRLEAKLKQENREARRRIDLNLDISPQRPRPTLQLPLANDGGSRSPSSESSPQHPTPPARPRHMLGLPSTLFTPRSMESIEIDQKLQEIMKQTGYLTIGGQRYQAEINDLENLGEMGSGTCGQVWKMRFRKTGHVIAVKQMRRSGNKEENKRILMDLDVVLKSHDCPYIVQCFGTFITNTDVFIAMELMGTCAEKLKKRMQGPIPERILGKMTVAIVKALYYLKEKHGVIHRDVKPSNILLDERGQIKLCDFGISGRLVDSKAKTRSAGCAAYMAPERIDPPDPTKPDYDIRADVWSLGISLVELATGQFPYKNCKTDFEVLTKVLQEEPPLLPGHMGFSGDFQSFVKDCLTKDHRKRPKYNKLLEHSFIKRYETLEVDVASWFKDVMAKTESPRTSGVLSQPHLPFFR", "UniProt P04049, sequence (whole entry, looked up)": "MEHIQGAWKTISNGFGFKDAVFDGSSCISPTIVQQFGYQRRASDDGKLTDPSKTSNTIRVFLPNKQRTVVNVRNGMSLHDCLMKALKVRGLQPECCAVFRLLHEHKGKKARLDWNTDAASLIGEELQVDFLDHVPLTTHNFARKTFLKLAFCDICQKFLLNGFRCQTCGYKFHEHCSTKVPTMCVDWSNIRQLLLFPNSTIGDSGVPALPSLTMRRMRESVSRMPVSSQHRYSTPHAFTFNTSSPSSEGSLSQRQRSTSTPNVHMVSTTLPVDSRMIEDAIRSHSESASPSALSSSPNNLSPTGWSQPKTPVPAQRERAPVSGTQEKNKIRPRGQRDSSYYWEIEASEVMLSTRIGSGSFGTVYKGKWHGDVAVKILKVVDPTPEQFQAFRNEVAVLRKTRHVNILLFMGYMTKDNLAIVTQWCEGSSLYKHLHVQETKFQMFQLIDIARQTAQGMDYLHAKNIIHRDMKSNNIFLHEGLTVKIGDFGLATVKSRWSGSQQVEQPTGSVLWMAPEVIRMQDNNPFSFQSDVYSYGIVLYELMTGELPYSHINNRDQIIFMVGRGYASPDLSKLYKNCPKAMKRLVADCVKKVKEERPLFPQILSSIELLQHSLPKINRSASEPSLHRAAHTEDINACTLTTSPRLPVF", "UniProt Q9NRH2, sequence (whole entry, looked up)": "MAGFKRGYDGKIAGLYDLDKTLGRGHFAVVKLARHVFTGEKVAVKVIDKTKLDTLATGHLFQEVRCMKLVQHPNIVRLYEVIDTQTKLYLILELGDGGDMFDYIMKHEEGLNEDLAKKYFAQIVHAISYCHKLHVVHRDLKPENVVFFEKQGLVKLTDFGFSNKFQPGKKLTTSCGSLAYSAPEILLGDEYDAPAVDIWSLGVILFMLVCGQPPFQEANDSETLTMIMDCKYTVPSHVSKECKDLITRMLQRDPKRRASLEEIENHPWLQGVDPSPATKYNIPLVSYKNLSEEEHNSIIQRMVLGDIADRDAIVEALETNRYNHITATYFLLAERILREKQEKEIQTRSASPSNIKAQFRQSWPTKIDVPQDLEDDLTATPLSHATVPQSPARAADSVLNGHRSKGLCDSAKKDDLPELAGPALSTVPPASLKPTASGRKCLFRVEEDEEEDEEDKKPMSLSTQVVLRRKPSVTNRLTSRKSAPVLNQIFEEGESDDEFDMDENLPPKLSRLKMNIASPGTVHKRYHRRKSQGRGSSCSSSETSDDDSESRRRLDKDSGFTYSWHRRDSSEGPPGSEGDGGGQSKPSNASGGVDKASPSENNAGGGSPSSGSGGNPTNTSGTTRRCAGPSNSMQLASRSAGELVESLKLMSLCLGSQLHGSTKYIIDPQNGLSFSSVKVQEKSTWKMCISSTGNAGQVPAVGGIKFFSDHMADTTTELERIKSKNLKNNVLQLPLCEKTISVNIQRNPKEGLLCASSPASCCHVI", "UniProt Q8WTQ7, sequence (whole entry, looked up)": "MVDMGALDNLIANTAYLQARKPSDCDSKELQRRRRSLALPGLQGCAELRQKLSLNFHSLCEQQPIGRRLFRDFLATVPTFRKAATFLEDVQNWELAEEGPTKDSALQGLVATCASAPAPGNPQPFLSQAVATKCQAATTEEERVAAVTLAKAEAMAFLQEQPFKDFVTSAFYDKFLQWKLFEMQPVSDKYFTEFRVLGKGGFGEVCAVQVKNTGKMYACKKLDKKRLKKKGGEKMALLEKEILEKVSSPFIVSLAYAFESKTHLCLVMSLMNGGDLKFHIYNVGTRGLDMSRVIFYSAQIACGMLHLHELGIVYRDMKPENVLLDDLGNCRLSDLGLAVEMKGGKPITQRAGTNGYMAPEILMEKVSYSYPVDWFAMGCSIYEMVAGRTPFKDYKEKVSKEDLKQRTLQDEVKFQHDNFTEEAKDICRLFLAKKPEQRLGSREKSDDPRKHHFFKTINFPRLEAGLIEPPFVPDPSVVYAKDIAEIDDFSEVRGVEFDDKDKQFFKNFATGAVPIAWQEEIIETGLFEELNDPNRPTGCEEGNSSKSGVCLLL"}
{"data": "Sample 1", "Structure (SMILES)": "O=C(Nc1cnn(-c2csc(C(=O)NC3COC3)c2)c1)Nc1c(F)cccc1Cl", "concentration": "5 µM"}
{"target": "Dual serine/threonine and tyrosine protein kinase (DSTYK, Homo sapiens, UniProt Q6XUX3)", "observed": "enzyme activity", "relative to": "untreated control", "remaining activity": "94.9%"}
{"target": "Cyclin-dependent kinase 2, with cyclin E2 (CDK2, Homo sapiens, UniProt P24941)", "observed": "enzyme activity", "relative to": "untreated control", "remaining activity": "96.3%"}
{"target": "Serine/threonine-protein kinase LATS1 (LATS1, Homo sapiens, UniProt O95835)", "observed": "enzyme activity", "relative to": "untreated control", "remaining activity": "92.2%"}
{"target": "SNF-related serine/threonine-protein kinase (SNRK, Homo sapiens, UniProt Q9NRH2)", "observed": "enzyme activity", "mode": "inhibitor", "remaining activity": "98.8%"}
{"target": "Leucine-rich repeat serine/threonine-protein kinase 2 (LRRK2, Homo sapiens, UniProt Q5S007)", "observed": "enzyme activity", "relative to": "untreated control", "remaining activity": "90.2%"}
{"target": "Rhodopsin kinase GRK7 (GRK7, Homo sapiens, UniProt Q8WTQ7)", "observed": "enzyme activity", "relative to": "untreated control", "remaining activity": "92.6%"}
{"target": "Mitogen-activated protein kinase kinase kinase 21 (MAP3K21, Homo sapiens, UniProt Q5TCX8)", "observed": "enzyme activity", "relative to": "untreated control", "remaining activity": "94.1%"}
{"target": "Cyclin-dependent kinase 2, with cyclin O (CDK2, Homo sapiens, UniProt P24941)", "observed": "enzyme activity", "mode": "inhibitor", "remaining activity": "94.1%"}
{"target": "Dual specificity mitogen-activated protein kinase kinase 7 (MAP2K7, Homo sapiens, UniProt O14733)", "observed": "enzyme activity", "relative to": "untreated control", "remaining activity": "135%"}
{"target": "MAP kinase-activated protein kinase 2 (MAPKAPK2, Homo sapiens, UniProt P49137)", "observed": "enzyme activity", "relative to": "untreated control", "remaining activity": "92.9%"}
{"target": "Maternal embryonic leucine zipper kinase (MELK, Homo sapiens, UniProt Q14680)", "observed": "enzyme activity", "relative to": "untreated control", "remaining activity": "59.6%"}
{"target": "Serine/threonine-protein kinase MRCK gamma (CDC42BPG, Homo sapiens, UniProt Q6DT37)", "observed": "kinase activity", "method": "kinase panel profiling", "remaining activity": "119%"}
{"target": "RAF proto-oncogene serine/threonine-protein kinase (RAF1, Homo sapiens, UniProt P04049)", "observed": "enzyme activity", "relative to": "untreated control", "remaining activity": "88.1%"}
{"target": "Tyrosine-protein kinase JAK1 (JAK1, Homo sapiens, UniProt P23458)", "observed": "enzyme activity", "relative to": "untreated control", "remaining activity": "104%"}
{"data": "Sample 2", "target": "Calcium/calmodulin-dependent protein kinase type II subunit alpha (CAMK2A, Homo sapiens, UniProt Q9UQM7)", "observed": "enzyme activity", "mode": "inhibitor", "concentration": "10 µM", "UniProt Q9UQM7, sequence (whole entry, looked up)": "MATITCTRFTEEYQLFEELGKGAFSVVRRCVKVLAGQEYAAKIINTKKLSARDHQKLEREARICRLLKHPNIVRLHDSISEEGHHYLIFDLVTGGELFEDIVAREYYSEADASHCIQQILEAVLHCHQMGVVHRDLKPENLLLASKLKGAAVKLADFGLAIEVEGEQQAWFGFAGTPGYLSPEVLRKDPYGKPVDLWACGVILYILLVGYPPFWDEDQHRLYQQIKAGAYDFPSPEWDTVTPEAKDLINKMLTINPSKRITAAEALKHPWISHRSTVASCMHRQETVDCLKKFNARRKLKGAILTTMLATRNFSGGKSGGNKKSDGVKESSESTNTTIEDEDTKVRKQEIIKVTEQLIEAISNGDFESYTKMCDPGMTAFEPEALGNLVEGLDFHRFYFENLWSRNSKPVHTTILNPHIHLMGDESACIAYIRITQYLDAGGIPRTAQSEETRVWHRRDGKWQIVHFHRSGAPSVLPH"}
{"SMILES": "O=C1C([C@@H]2O[C@H](CO)[C@@H](O)[C@H](O)[C@H]2O)=C(O)/C(=C(O)/C=C/c2ccc(O)cc2)C(=O)C1(O)[C@@H]1O[C@H](CO)[C@@H](O)[C@H](O)[C@H]1O (some centres unmarked)", "inhibition": "-23%"}
{"SMILES": "CC(C)[C@@H]1CC[C@@H](C)CC1=O", "inhibition": "-31%"}
{"SMILES": "COCC(=O)Nc1c(I)c(C(=O)NCC(O)CO)c(I)c(C(=O)N(C)CC(O)CO)c1I (mixture of isomers)", "inhibition": "-4%"}
{"SMILES": "NC(=O)N1c2ccccc2C=Cc2ccccc21", "inhibition": "-5%"}
{"SMILES": "CC(=O)[C@]1(O)Cc2c(O)c3c(c(O)c2[C@@H](O[C@H]2C[C@H](N)[C@H](O)[C@H](C)O2)C1)C(=O)c1ccccc1C3=O", "inhibition": "2%"}
{"SMILES": "CS(=O)(=O)Nc1ccc([N+](=O)[O-])cc1Oc1ccccc1", "inhibition": "-3%"}
{"SMILES": "CCCCCCCCCCCCCCC[C@@H](O)[C@@H](N)CO", "inhibition": "-5%"}
{"SMILES": "CC(=O)N[C@H]1[C@H]([C@H](O)[C@H](O)CO)O[C@](O)(C(=O)O)C[C@@H]1O", "inhibition": "-21%"}
{"SMILES": "C=C(C(=O)O)[C@@H]1CC[C@@H](C)[C@@H]2CCC(C)=C[C@@H]21", "inhibition": "40%"}
{"SMILES": "CCCCCCCC(=O)c1c(O)cc(O)cc1CC(=O)OCC", "inhibition": "-17%"}
{"SMILES": "Cc1cc(C)c(NC(=O)CN(CC(=O)O)CC(=O)O)c(C)c1Br", "inhibition": "0%"}
{"SMILES": "Cc1cc(=O)c2c(O)cc(O)cc2o1", "inhibition": "2%"}
{"SMILES": "Cc1ccc(C(=O)C(C)CN2CCCCC2)cc1 (centres unmarked)", "inhibition": "-6%"}
{"SMILES": "C[C@@H]1NC(=O)[C@@H]2CCCN2C(=O)[C@H](CC(N)=O)NC(=O)[C@@H]2CSSC[C@H](N)C(=O)N[C@H]3CSSC[C@H](NC1=O)C(=O)N[C@@H]([C@@H](C)O)C(=O)NCC(=O)N[C@H](C(=O)N[C@@H](Cc1ccc(O)cc1)C(=O)O)CSSC[C@H](NC(=O)[C@H](Cc1ccc(O)cc1)NC(=O)[C@H](CCC(=O)O)NC3=O)C(=O)N2", "inhibition": "-1%"}
{"SMILES": "Cc1ncc(CO)c(C=O)c1O", "inhibition": "-5%"}
{"SMILES": "COc1cc(-c2coc3c([C@@H]4O[C@H](CO)[C@@H](O)[C@H](O)[C@H]4O)c(O)ccc3c2=O)ccc1O", "inhibition": "5%"}
{"data": "Sample 3", "target": "Beta-adrenergic receptor kinase 1 (GRK2, Homo sapiens, UniProt P25098)", "observed": "enzyme activity", "mode": "inhibitor", "concentration": "0.5 µM", "relative to": "control", "UniProt P25098, sequence (whole entry, looked up)": "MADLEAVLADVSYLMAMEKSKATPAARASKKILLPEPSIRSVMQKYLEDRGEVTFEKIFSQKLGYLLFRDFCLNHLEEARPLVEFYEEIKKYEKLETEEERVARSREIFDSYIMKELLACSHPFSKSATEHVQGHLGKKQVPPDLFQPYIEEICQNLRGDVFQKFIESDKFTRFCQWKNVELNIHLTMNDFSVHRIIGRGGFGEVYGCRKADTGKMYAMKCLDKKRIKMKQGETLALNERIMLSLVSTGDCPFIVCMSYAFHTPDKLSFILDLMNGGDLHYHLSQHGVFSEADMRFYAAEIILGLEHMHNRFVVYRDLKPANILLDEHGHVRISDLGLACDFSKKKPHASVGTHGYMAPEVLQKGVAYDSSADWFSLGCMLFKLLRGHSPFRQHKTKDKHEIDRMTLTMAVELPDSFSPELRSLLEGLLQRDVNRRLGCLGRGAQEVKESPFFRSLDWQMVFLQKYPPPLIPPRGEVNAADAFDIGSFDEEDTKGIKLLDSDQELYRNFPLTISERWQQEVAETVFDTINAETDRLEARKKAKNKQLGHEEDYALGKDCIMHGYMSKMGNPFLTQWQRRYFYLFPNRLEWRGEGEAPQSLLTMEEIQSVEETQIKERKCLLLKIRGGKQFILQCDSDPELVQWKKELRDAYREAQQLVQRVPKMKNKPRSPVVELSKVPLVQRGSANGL"}
{"Compound": "COc1ccc(S(=O)(=O)N(CCO)c2ccccc2CN(C)CC=Cc2ccc(Cl)cc2)cc1", "remaining activity [%]": 97.9}
{"Compound": "O=S(=O)(NCCNC/C=C/c1ccc(Br)cc1)c1cccc2cnccc12", "remaining activity [%]": 91.3}
{"Compound": "O=C1NC(=O)C(c2c[nH]c3ccccc23)=C1c1c[nH]c2ccccc12", "remaining activity [%]": 98.4}
{"Compound": "Nc1ncnc2c1cnn2-c1ccccc1", "remaining activity [%]": 99.4}
{"Compound": "Cc1ccc(NC2=CC(=O)c3sc(C)nc3C2=O)cc1", "remaining activity [%]": 96.6}
{"Compound": "CCc1[nH]c(-c2ccc(OC)cc2)nc1-c1ccncc1", "remaining activity [%]": 101}
{"Compound": "N#CC(=C(N)Sc1ccc(N)cc1)c1ccccc1C(F)(F)F", "remaining activity [%]": 114}
{"Compound": "Fc1ccc(-c2nc3n(c2-c2ccncc2)CCS3)cc1", "remaining activity [%]": 102}
{"Compound": "CCCC(=O)Oc1ccc2[nH]c(C(=O)c3cc4ccccc4[nH]3)cc2c1", "remaining activity [%]": 102}
{"Compound": "Nc1nc(Nc2ccc(S(N)(=O)=O)cc2)nn1C(=O)c1c(F)cccc1F", "remaining activity [%]": 97.3}
{"Compound": "Oc1ccc(Nc2nc(-c3ccc(Cl)cc3)cs2)cc1", "remaining activity [%]": 100}
{"Compound": "Nc1nccc(-c2c(-c3ccc(F)cc3)ncn2C2CCNCC2)n1", "remaining activity [%]": 99.7}
{"Compound": "Cc1cncc2cccc(S(=O)(=O)N3CCCN(C(=O)CN)C[C@@H]3C)c12", "remaining activity [%]": 101}
{"Compound": "Cc1cc(Nc2nc(-c3ccccc3)nc3ccccc23)n[nH]1", "remaining activity [%]": 106}
{"Compound": "CC(=O)c1ccc(N2CCOCC2)cc1O", "remaining activity [%]": 99}
{"Compound": "COc1cc(Nc2c(C#N)cnc3cc(OCCCN4CCN(C)CC4)c(OC)cc23)c(Cl)cc1Cl", "remaining activity [%]": 97.3}
{"Compound": "CSc1nc(-c2ccnc(N[C@@H](C)c3ccccc3)c2)c(-c2ccc(F)cc2)[nH]1 (racemic)", "remaining activity [%]": 102}
{"Compound": "CC[n+]1c(/C=C/N(C)c2ccccc2)n(-c2ccccc2)c2ccc(-c3nc4ccccc4s3)cc21", "remaining activity [%]": 87.5}
{"Compound": "NC(=O)c1ccc(N(C(N)=O)c2c(F)cccc2F)nc1-c1ccc(F)cc1F", "remaining activity [%]": 99}
{"Compound": "O=C1Cc2c([nH]c3ccc([N+](=O)[O-])cc23)-c2ccccc2N1", "remaining activity [%]": 91.8}
{"Compound": "CC#CC(=O)Nc1cc2c(Nc3ccc(F)c(Cl)c3)ncnc2cn1", "remaining activity [%]": 98.3}
{"Compound": "CC(C)(C)n1nc(Cc2cccc3ccccc23)c2c(N)ncnc21", "remaining activity [%]": 101}
{"data": "Sample 4", "species": "mouse", "matrix": "microsomes or S9", "concentration": "2 µM", "time": "0.5 h"}
{"SMILES": "CS(=O)(=O)c1cccc(Br)c1N1CCCC2(CNC(=O)O2)C1 (centres unmarked)", "remaining compound [%]": 69.9}
{"SMILES": "CC(C)c1cc(C(N)=O)c(NC(=O)/C(=C/c2ccccc2)c2ccccc2)s1", "remaining compound [%]": 62.7}
{"SMILES": "NC(N)=Nc1nc(-c2cc3ccccc3o2)cs1", "remaining compound [%]": 8.06}
{"SMILES": "O=C(O)c1cn2c(n1)C(c1ccccc1)N(C(=O)c1ccccc1)CC2 (centres unmarked)", "remaining compound [%]": 31.7}
{"SMILES": "COC(=O)c1c(C)nc2n(CCN3CCOCC3)c3ccccc3n12", "remaining compound [%]": 1.45}
{"SMILES": "O=C(Nc1ccccc1-c1cn2ccccc2n1)c1ccc(Cn2ccnc2)cc1", "remaining compound [%]": 0}
{"SMILES": "Cc1nc2sc(C(=O)NC(C)(C)C)c(N)c2c(C)c1C", "remaining compound [%]": 4.39}
{"SMILES": "O=S(=O)(Cc1cc(F)ccc1F)NCCn1ccc(-c2ccsc2)n1", "remaining compound [%]": 3.04}
{"SMILES": "CC(C)S(=O)(=O)c1ccccc1Nc1c(Cl)cnc(Cl)c1Cl", "remaining compound [%]": 17.5}
{"SMILES": "Cc1c(Br)c2ccccc2n1CC(=O)n1ncc(C#N)c1N", "remaining compound [%]": 3.12}
{"SMILES": "Cn1ncc(C(=O)O)c1NC(=O)c1cc(Br)nn1-c1ncccc1Cl", "remaining compound [%]": 61.5}
{"SMILES": "Cc1nn(-c2ncnc3[nH]cnc23)c2c1C(c1cccc(OC(C)C)c1)CC(=O)N2 (centres unmarked)", "remaining compound [%]": 0.307}
{"SMILES": "c1ccc(CCNCc2cccc(Oc3nnnn3-c3ccccc3)c2)cc1", "remaining compound [%]": 17.9}
